Experimental data collected from several papers.
Protocols differ between the studies behind these lines.
PRKCB isoform beta-I: Protein kinase C beta type, isoform beta-I (PRKCB, Homo sapiens, UniProt P05771)
Chain of UniProt P05771 (whole entry, looked up): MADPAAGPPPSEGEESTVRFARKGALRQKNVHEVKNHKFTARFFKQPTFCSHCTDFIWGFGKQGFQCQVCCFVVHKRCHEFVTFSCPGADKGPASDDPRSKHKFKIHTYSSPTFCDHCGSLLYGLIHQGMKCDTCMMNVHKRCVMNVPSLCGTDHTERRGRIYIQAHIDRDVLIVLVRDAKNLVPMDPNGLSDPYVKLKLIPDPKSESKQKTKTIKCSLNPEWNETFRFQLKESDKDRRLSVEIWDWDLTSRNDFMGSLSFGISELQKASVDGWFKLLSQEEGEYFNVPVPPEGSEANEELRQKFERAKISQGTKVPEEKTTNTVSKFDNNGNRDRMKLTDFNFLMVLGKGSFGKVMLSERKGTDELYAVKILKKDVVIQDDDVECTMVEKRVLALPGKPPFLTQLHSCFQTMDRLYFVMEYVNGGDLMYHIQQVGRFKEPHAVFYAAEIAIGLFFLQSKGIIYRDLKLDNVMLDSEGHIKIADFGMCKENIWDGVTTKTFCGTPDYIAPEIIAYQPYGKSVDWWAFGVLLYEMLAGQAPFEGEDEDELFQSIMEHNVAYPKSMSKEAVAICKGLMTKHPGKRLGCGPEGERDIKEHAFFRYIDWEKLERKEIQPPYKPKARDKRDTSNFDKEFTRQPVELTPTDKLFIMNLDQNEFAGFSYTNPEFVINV
PRKCB isoform beta-II: Protein kinase C beta type, isoform beta-II (PRKCB, Homo sapiens, UniProt P05771)

SMILES | target | assay | conditions | how to read | remaining activity [%]
COc1cc(F)ccc1-c1ncnc(Nc2cccc(C[S@](C)(=N)=O)c2)n1 | PRKCB isoform beta-I | kinase activity | 10 µM, added: 10 µM ATP | – | 100
Cc1cnc(NC2CCOCC2)nc1-n1cnc(C(=O)NC(CN)c2cc(F)cc(Cl)c2)c1 (stereo not drawn) | PRKCB isoform beta-I | radiometric | 1 µM | – | 101
COc1cc(Cl)c(C(=O)N[C@@H](CN[C@H]2CC[C@@H](N)CC2)Cc2ccc(C#N)cc2)cc1-c1ccc(CN[C@H](C)c2ccc(C)cc2)o1 | PRKCB isoform beta-II | enzyme activity, KinaseProfiler panel | 1 µM | – | 99
CCCOc1ccc(OC)c(F)c1C(=O)c1ccc(C(=O)N[C@@H]2CNC[C@H]2NC(=O)c2ccc3[nH]ncc3c2)cc1 | PRKCB isoform beta-II | kinase activity | 10 µM | – | 87
CCN(CC)c1ccc(C2=NNC(=O)CC2C)cc1[N+](=O)[O-] (stereo not drawn) | PRKCB isoform beta-I | kinase activity, inhibitor | 10 µM | – | 94
CC(C)(O)[C@H]1CC[C@H](Nc2ccc3ncc(-c4cccc(C(F)(F)F)c4)n3n2)CC1 | PRKCB isoform beta-II | enzyme activity, inhibitor | 1 µM, added: 10 µM ATP | relative to: DMSO | 79.1
COc1cc(-c2cncc3c2CN(C)Cc2cc(N4CCNCC4)ccc2-3)cc(OC)c1OC | PRKCB isoform beta-II | enzyme activity | 1 µM, added: 10 µM ATP | relative to: DMSO | 100
Cc1cc(Nc2cc(N3CCN(C)CC3)nc(Sc3ccc(NC(=O)C4CC4)cc3)n2)[nH]n1 | PRKCB isoform beta-II | kinase activity, KinaseProfiler | 0.03 µM, species human | relative to: control | 97
CC(C)(C)c1nc2c(s1)c1nc(N)ncc1c1ccc(NS(=O)(=O)c3c(F)cccc3F)c(F)c12 | PRKCB isoform beta-II | kinase activity, radiometric 33PanQinase | 1 µM | relative to: DMSO | 75
c1cnc2ccc(Nc3nc(NC4CC4)c4nc[nH]c4n3)cc2c1 | PRKCB (Homo sapiens, UniProt P05771) | kinase activity, inhibitor, SelectScreen kinase profiling | 1 µM | relative to: control | 103
Cc1ccc(NC(=O)c2ccc(C)c(C(F)(F)F)c2)cc1C#Cc1nn(C2CCC(O)CC2)c2ncnc(N)c12 (stereo not drawn) | PRKCB isoform beta-II | enzyme activity | 10 µM, added: ATP 10 µM | – | 99
Cc1ccc(C(=O)NCc2ccsc2)cc1C#Cc1cn(C(C)C)c2ncnc(N)c12 | PRKCB isoform beta-I | kinase activity | 1 µM, added: ATP at Km | – | 100
Cc1cc(NC(=O)c2cccc3cc(-c4cccc5[nH]nc(N)c45)ccc23)ccc1F | PRKCB isoform beta-II | enzyme activity, kinase profiling panel | 0.1 µM | – | 95
CNc1ncc2c(/C=C/C(=O)N3CCC(OC)CC3)nn(Cc3cccc(C(F)(F)F)c3)c2n1 | PRKCB isoform beta-I | inhibitor | 1 µM | relative to: control | 95
CC(C)c1ccc(NC(=O)c2cccs2)c(-c2nc3ccccc3[nH]c2=O)c1 | PRKCB isoform beta-II | kinase activity | 1 µM | – | 95

A few entries again:
SMILES | target | assay | conditions | how to read | remaining activity [%]
Cc1cc(NC(=O)c2cccc3cc(-c4cccc5[nH]nc(N)c45)ccc23)ccc1F | PRKCB isoform beta-II | enzyme activity, kinase profiling panel | 0.1 µM | – | 95
CNc1ncc2c(/C=C/C(=O)N3CCC(OC)CC3)nn(Cc3cccc(C(F)(F)F)c3)c2n1 | PRKCB isoform beta-I | inhibitor | 1 µM | relative to: control | 95
